Results of several laboratories.
Lines come from different studies, so protocols differ.
Cell line: MCF7

CC[C@H](C)[C@H](NC(=O)[C@H](CCCCN)NC(=O)[C@H](CCCCN)NC(=O)[C@H](CC(C)C)NC(=O)[C@@H](NC(=O)[C@H](CCCCN)NC(=O)[C@H](C)NC(=O)[C@H](C)NC(=O)[C@@H](NC(=O)CNC(=O)[C@H](C)NC(=O)[C@@H](NC(=O)[C@@H](NC(=O)[C@@H]1CCCN1C(=O)[C@H](Cc1ccccc1)NC(=O)[C@@H](N)Cc1ccccc1)[C@@H](C)CC)C(C)C)C(C)C)C(C)C)C(=O)N[C@@H](Cc1ccccc1)C(=O)N[C@H]1CSSC[C@@H](C(=O)O)NC(=O)[C@H](CCCCN)NC(=O)[C@H](CCCCN)NC(=O)[C@H](CO)NC(=O)[C@H]([C@@H](C)CC)NC(=O)[C@H]([C@@H](C)O)NC1=O
IC50 (cell growth or viability, MTT): 7.6 µM

C=C(C)[C@@H]1CCC(C)=C[C@H]1c1c(O)cc(CCCCC)cc1O
IC50 (cell growth or viability, MTT; 72 h): 24.1 µM

C=C1C[C@@H]2[C@H](CC[C@]3(C)C(=O)CC[C@@H]23)[C@@]2(C)C=CC(=O)C=C12
inhibition (cell proliferation, BrdU; 100 nM, 48 h, added: DHEA 5 µM): ~50%

NNC(=O)Cn1c2ccccc2c2cn[nH]c(=O)c21
fold change (RT-PCR, refers to: mTOR; 5 µM, 48 h, normalised to β-actin; relative to: untreated): 0.44

O=[N+]([O-])c1ccc(N=NNCCO)cc1
IC50 (cell growth or viability, LDH): 6.14 µM

CC[P](CC)(CC)=[Au][S][C@@H]1O[C@H](COC(C)=O)[C@@H](OC(C)=O)[C@H](OC(C)=O)[C@H]1OC(C)=O
EC50 (cell growth or viability, resazurin; 72 h): 4.09 µM

CC[C@H](C)[C@H](NC(=O)[C@@H](N)Cc1ccccc1)C(=O)NCC(=O)N[C@H](C(=O)N[C@@H](CC(C)C)C(=O)N[C@H](C(=O)N1CCC[C@H]1C(=O)N[C@@H](CC(C)C)C(=O)N[C@@H](C)C(=O)N[C@@H](CC(C)C)C(=O)NCC(=O)N[C@@H](C)C(=O)N[C@@H](CC(C)C)C(=O)N[C@H](C(=O)N[C@@H](CCCCN)C(=O)N[C@@H](CC(C)C)C(=O)N[C@@H](Cc1ccccc1)C(=O)N[C@@H](CCCCN)C(N)=O)[C@@H](C)O)[C@@H](C)CC)[C@@H](C)O
IC50 (cell growth or viability, CCK-8; 24 h): 11.2 µM

N#Cc1ccccc1N=NNc1ccccc1C#N
IC50 (cell growth or viability, LDH): 1.45 µM

CN[C@@H]1C[C@H]2O[C@@](C)([C@@H]1OC)n1c3ccccc3c3c4c(c5c6ccccc6n2c5c31)C(=O)NC4
late apoptotic cells (annexin V/PI; 2.5 µM, 24 h): 19%

CC[C@H](C)[C@@H]([C@@H](CC(=O)N1CCC[C@H]1[C@H](OC)[C@@H](C)C(=O)N[C@@H](Cc1ccccc1)c1nccs1)OC)N(C)C(=O)[C@@H](NC(=O)[C@H](C(C)C)N(C)C)C(C)C
IC50 (cell growth or viability; 48 h): 5.5e-05 µM

A few entries again:
N#Cc1ccccc1N=NNc1ccccc1C#N
IC50 (cell growth or viability, LDH): 1.45 µM
